Assay results of several laboratories.
Each numbered part is a random draw from the data of one study; scales do not carry over between parts.

Sample 1
Target: Prothrombin, mature alpha-thrombin (F2, Homo sapiens, UniProt P00734)
Method: aptamer microarray, sandwich
Form: DNA with 2'F-ANA
Matrix: in vitro
Concentration: 200 nM
Notes: whole 15-mer aptamer, many near background
Added: Cy3 exosite-II aptamer, 400 nM
Reading: higher = stronger binding
Oligonucleotide: GGTTGGTGTGGTTGG
`2'F-ANA at 1 3 5 6 8 10` — result for “mean fluorescence intensity”: 47.8 a.u.
For `2'F-ANA at 1 10 15`, “mean fluorescence intensity” read 59.5 a.u.
For `2'F-ANA at 1 2 4 7 8 9 10 11`, “mean fluorescence intensity” read 48.9 a.u.
`2'F-ANA at 1 6 8 10 11 12 14`: “mean fluorescence intensity” 48.5 a.u.
Under “mean fluorescence intensity”, `2'F-ANA at 1 2 3 4 7 8 9 10 11 13 14 15` is recorded as 63.6 a.u.
Under “mean fluorescence intensity”, `2'F-ANA at 1 3 5 6 7 9 11 12 14` is recorded as 46.6 a.u.
`2'F-ANA at 4 5 7 9 10 11 12 14 15` — result for “mean fluorescence intensity”: 47.3 a.u.
`2'F-ANA at 1 3 11 12` — result for “mean fluorescence intensity”: 529 a.u.
`2'F-ANA at 1 3 4 10 13 14 15`: “mean fluorescence intensity” 58.6 a.u.
`2'F-ANA at 1 4 7 9 14` — result for “mean fluorescence intensity”: 49 a.u.
`2'F-ANA at 1 2 3 4 5 6 9 10 11 12 13 15`: “mean fluorescence intensity” 49.4 a.u.
`2'F-ANA at 3 4 6 8 11 12 15` — result for “mean fluorescence intensity”: 844 a.u.
`2'F-ANA at 1 3 6 9 11 14 15` — result for “mean fluorescence intensity”: 71.2 a.u.
For `2'F-ANA at 1 2 3 8 13 15`, “mean fluorescence intensity” read 213 a.u.
`2'F-ANA at 5 6 8 10 13 14 15` — result for “mean fluorescence intensity”: 111 a.u.
Under “mean fluorescence intensity”, `2'F-ANA at 2 3 4 5 6 7 8` is recorded as 100 a.u.
Under “mean fluorescence intensity”, `2'F-ANA at 7 8 11 12 13` is recorded as 702 a.u.
Under “mean fluorescence intensity”, `2'F-ANA at 3 5 9 12 15` is recorded as 230 a.u.
For `2'F-ANA at 1 2 3 4 5 7 8`, “mean fluorescence intensity” read 69.6 a.u.
`2'F-ANA at 1 2 3 4 5 10 11 13`: “mean fluorescence intensity” 53.4 a.u.
For `2'F-ANA at 1 2 3 4 6 11 15`, “mean fluorescence intensity” read 129 a.u.
Under “mean fluorescence intensity”, `2'F-ANA at 1 2 4 5 11 12` is recorded as 81.3 a.u.

Sample 2
Target: Sal-like protein 4, full length isoform B (SALL4, Homo sapiens, UniProt Q9UJQ4-2, residues 1-616)
Method: universal PBM
Form: double-stranded DNA, one strand shown
Matrix: in vitro
Concentration: not given
Notes: 8-mer, flanks averaged, mean of replicates
Reading: higher = stronger binding
`AGTGTTCA` has an E-score of 0.0795.
The E-score of `CCCTGGGA` is reported as -0.403.
`GGTTATAA` has an E-score of 0.298.
The E-score of `CGTTTTAC` is reported as 0.123.
The E-score of `AGATTGCG` is reported as -0.0035.
With `ATATTGCC` the E-score was 0.273.
`CCTCGAAA` gave an E-score of 0.0589.
The E-score of `CTACTGTA` is reported as 0.122.
`ATGATAGC` gave an E-score of 0.258.
`CAAGCTGC` has an E-score of -0.134.
The E-score of `AAAAACAC` is reported as 0.103.
The E-score of `CGTGGTCC` is reported as -0.309.
`CGTAGGTA` has an E-score of -0.0449.
`CCGGAAGA` gave an E-score of -0.139.
For `ATACGTAA`, the E-score was 0.308.
`CCTTTACA` gave an E-score of 0.109.
For `CGGGGTTA`, the E-score was -0.129.
`ACTGAAGT` gave an E-score of -0.00818.
`AGAGGACC` gave an E-score of -0.311.
The E-score of `ATTACATG` is reported as 0.361.
`ATGATCCA` has an E-score of 0.0256.
The E-score of `ATGCCTTA` is reported as 0.125.
With `ATGAAATC` the E-score was 0.288.
`GTGCAGGA` has an E-score of -0.0878.
`CCGAATTC` has an E-score of -0.152.

Sample 3
Target: Histone acetyltransferase KAT6A, winged helix 1, GST fusion (KAT6A, Homo sapiens, UniProt Q92794, residues 1-85)
Method: protein binding microarray
Form: double-stranded DNA, one strand shown
Matrix: in vitro
Concentration: not given
Notes: 8-mer, flanks averaged, mean of 2 arrays, mostly near background
Baseline: not given
Reading: higher = stronger binding
Residues (chain): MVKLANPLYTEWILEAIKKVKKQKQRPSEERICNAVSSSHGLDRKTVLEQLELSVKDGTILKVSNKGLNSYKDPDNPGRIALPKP
The E-score of `CAAAAGAC` is reported as -0.0486.
With `ACTATACG` the E-score was 0.0994.
With `AGCGAAAA` the E-score was -0.118.
`ACGTTGGC` has an E-score of -0.104.
With `CGTTACAA` the E-score was -0.0399.
For `CACCTTAC`, the E-score was -0.0057.
With `GGTGCAAA` the E-score was -0.17.
The E-score of `CGAAATAG` is reported as 0.0865.
For `GAGTGCTA`, the E-score was -0.192.
The E-score of `CGGGTCAC` is reported as 0.281.
For `AAACGTAA`, the E-score was -0.081.
`CGCATAGC` gave an E-score of 0.354.
The E-score of `CCTCAGAC` is reported as 0.0115.
`ATGGACAG` has an E-score of -0.107.
With `GAATACCA` the E-score was -0.174.
With `ACTGGTTG` the E-score was -0.0761.
For `AGGGTATC`, the E-score was -0.126.
With `ACTGACCA` the E-score was -0.113.
`TCAACAAA` gave an E-score of -0.072.
`ACATTCGC` gave an E-score of 0.108.
`ACTTCCTC` has an E-score of -0.166.

Sample 4
Target: Interferon regulatory factor 5, full length, phosphomimetic (IRF5, Homo sapiens, UniProt Q13568-2, residues 1-514, S451D/S453D/S456D/S462D)
Method: protein-binding microarray
Form: double-stranded DNA, one strand shown
Matrix: in vitro
Concentration: 940 nM top
Notes: 60-bp whole probe
Added: salmon DNA 0.4 mg/ml
Baseline: random background probes
Reading: higher = stronger binding
Constant ends, left off below: GCCTAGCAC … GTCTTGATTCGCTTGACGCTGCTG
`TTAGTTCTCAGTATCGATTAGTGCTAG` — result for “fitted relative affinity”: 5.88 z-score.
Under “fitted relative affinity”, `TTAGGTCTCCTGCTCCTTTAGTGCTAG` is recorded as 0.00613 z-score.
For `AGTTCTCTGAAGACTCTCTTGGTGCTA`, “fitted relative affinity” read 0.363 z-score.
`TTCTCAACCAGTTTTCTTTTCGTGCTA` — result for “fitted relative affinity”: 2.02 z-score.
Under “fitted relative affinity”, `TTAGGTCTCCGACTGGGTTAGTGCTAG` is recorded as -0.505 z-score.
For `TTAGGCCTGGGACTGGGTTAGTGCTAG`, “fitted relative affinity” read -0.748 z-score.
`TTAGGACTGGGGTCTCGGTTAGTGCTA` — result for “fitted relative affinity”: 0.946 z-score.
Under “fitted relative affinity”, `TTAGATTTCAGTCTAGATTAGTGCTAG` is recorded as 0.645 z-score.
For `GCCGATATCGGGTATCGAGACGTGCTA`, “fitted relative affinity” read 1.92 z-score.
`TTAGATTTCGGGTACCGATTAGTGCTA`: “fitted relative affinity” 1.03 z-score.
`GAAGGACTGCTTTTCCTGACGTGCTAG`: “fitted relative affinity” -0.406 z-score.
For `TTAGGACTGGACACTGGGTTCGTGCTA`, “fitted relative affinity” read -0.627 z-score.
`TTAGGTATCGGTATCGGTTAGTGCTAG` — result for “fitted relative affinity”: 11 z-score.
`GACGATCTCAGGTTCGAGACGTGCTAG` — result for “fitted relative affinity”: -0.0696 z-score.
`TCAAATATTCATTTTATACTGTGCTAG`: “fitted relative affinity” 0.462 z-score.
Under “fitted relative affinity”, `GACGGTTCACTTTTCCTGACGTGCTAG` is recorded as 0.454 z-score.
`TTAGGTACCGACACTGGGTTAGTGCTA` — result for “fitted relative affinity”: -0.0426 z-score.
`GAAGGTCTCCTTATCCTGACGTGCTAG`: “fitted relative affinity” 0.186 z-score.
`GACGATTCCAGTTTCGAGATGTGCTAG` — result for “fitted relative affinity”: 4.39 z-score.
`TTAGATTTCAGACTGTATTAGTGCTAG` — result for “fitted relative affinity”: 0.113 z-score.
For `TTTGGTTTCGACTTTCGGTTAGTGCTA`, “fitted relative affinity” read 10.8 z-score.
For `AGCACTTTGGCATGTCTTGACGTGCTA`, “fitted relative affinity” read -0.713 z-score.
`TTAGATCTCAGTATCGATAAGTGCTAG`: “fitted relative affinity” 4.22 z-score.
`TTGGTTTTCTCTATTGCTTTGTGCTAG`: “fitted relative affinity” 1.9 z-score.
`TTAGATATCGGGTATCTATTAGTGCTA` — result for “fitted relative affinity”: 0.655 z-score.

A few entries again (sample 1):
For `2'F-ANA at 1 2 3 8 13 15`, “mean fluorescence intensity” read 213 a.u.
`2'F-ANA at 5 6 8 10 13 14 15` — result for “mean fluorescence intensity”: 111 a.u.
Under “mean fluorescence intensity”, `2'F-ANA at 2 3 4 5 6 7 8` is recorded as 100 a.u.
Under “mean fluorescence intensity”, `2'F-ANA at 7 8 11 12 13` is recorded as 702 a.u.
Under “mean fluorescence intensity”, `2'F-ANA at 3 5 9 12 15` is recorded as 230 a.u.
For `2'F-ANA at 1 2 3 4 5 7 8`, “mean fluorescence intensity” read 69.6 a.u.
`2'F-ANA at 1 2 3 4 5 10 11 13`: “mean fluorescence intensity” 53.4 a.u.
For `2'F-ANA at 1 2 3 4 6 11 15`, “mean fluorescence intensity” read 129 a.u.
